Assay results from different studies.
± gives the spread as reported. Converted amounts (≈) assume the structure as drawn.

Protein sequences, listed by entry. Tags and fused reporters are not part of them. Chains listed by the source or under a name are the forms on record and can include a tag or linker. Residues count along the entry.
UniProt P08510, 1-655 with tags or gaps DEL6-46: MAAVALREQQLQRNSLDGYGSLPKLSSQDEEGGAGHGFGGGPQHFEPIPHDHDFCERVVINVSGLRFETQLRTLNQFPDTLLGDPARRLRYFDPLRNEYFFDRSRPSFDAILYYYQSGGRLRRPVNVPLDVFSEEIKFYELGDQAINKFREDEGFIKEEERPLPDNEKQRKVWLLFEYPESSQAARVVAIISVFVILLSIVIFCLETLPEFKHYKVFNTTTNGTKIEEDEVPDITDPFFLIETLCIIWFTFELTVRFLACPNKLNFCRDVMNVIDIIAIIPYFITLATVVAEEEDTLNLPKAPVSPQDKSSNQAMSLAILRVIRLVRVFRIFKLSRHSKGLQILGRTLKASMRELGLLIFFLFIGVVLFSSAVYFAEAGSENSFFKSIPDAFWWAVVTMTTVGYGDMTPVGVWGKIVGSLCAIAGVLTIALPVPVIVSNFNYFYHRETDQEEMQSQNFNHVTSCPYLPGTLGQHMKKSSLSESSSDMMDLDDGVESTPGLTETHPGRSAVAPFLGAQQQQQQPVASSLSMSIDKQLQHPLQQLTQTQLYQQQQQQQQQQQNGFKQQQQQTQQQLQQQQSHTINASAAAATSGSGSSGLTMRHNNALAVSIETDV
UniProt P41146, whole entry: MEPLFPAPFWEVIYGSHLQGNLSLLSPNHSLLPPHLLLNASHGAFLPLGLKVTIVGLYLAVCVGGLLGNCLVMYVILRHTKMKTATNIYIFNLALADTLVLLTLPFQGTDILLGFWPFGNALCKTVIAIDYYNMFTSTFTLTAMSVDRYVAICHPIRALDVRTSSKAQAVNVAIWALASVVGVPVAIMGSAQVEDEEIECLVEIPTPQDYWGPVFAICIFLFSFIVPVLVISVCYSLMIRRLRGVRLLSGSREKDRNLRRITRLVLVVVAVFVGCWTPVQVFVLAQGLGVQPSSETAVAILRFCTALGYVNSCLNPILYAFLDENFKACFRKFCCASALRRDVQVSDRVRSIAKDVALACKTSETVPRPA

| SMILES | target or system | test | test system | conditions | how to read | quantity | value |
| --- | --- | --- | --- | --- | --- | --- | --- |
| CCOc1ccccc1-c1cc(C(=O)NC/C=C/S(C)(=O)=O)nn1COC | Chikungunya virus | viral replication, nanoluciferase reporter | 181/25-nLuc-Capsid |  |  | EC50 | 3000 nM |
| O=C(NC1CCN(c2ncnc3[nH]cnc23)CC1)c1cccc(NS(=O)(=O)c2ccc([N+](=O)[O-])cc2)c1 | SARS-CoV-2 |  | Wuhan-Hu-1 | 0.01016 µM | relative to: untreated infected cells | relative infection | 87.3% |
| COc1cc(Cc2cnc(N)nc2N)cc(/C=C/C(=O)N2N=Cc3ccccc3[C@@H]2C=C(C)C)c1OC | Bacillus anthracis |  |  |  |  | MIC | 0.5 to 1 µg/mL (≈ 1 to 2.01 µM) |
| CC[C@H](C)[C@@H]1NC(=O)[C@H](CCCNC(=N)N)NC(=O)[C@@H](N)CSSC[C@@H]2NC(=O)[C@@H]3CSSC[C@@H](C(=O)N[C@H](C(=O)O)C(C)C)NC(=O)[C@H](CCCCN)NC(=O)[C@H](CC(N)=O)NC(=O)[C@H](Cc4ccccc4)NC(=O)[C@H](CCCNC(=N)N)NC(=O)[C@H](CC(N)=O)NC(=O)[C@H](CSSC[C@H](NC(=O)[C@H](CCCCN)NC(=O)[C@H](CCC(N)=O)NC(=O)[C@H](CC(N)=O)NC(=O)[C@@H]4C[C@@H](O)CN4C1=O)C(=O)N[C@@H](Cc1ccccc1)C(=O)N[C@@H](CCC(N)=O)C(=O)N[C@@H](Cc1c[nH]cn1)C(=O)N[C@@H](CC(C)C)C(=O)N[C@@H](CC(=O)O)C(=O)N[C@@H](CC(=O)O)C(=O)N3)NC(=O)[C@H](CCCCN)NC(=O)[C@H](CCCNC(=N)N)NC(=O)[C@H](CO)NC2=O | Sh (Drosophila melanogaster, UniProt P08510, del6-46) | potassium current, outside-out patch clamp |  | chronic application, zero voltage, internal K 15, added: 1 mM TEA |  | Kd | 313 ± 37 nM |
| Cc1ccccc1S(=O)(=O)Nc1cccc(C(=O)NC2CCN(c3ncnc4[nH]cnc34)CC2)c1 | SARS-CoV-2 |  | Wuhan-Hu-1 | 7.407 µM | relative to: untreated infected cells | relative infection | 42% |
| CC[C@H](C)[C@H](NC(=O)[C@H](C)NC(=O)[C@H](CCC(=O)O)NC(=O)[C@H](CCC(=O)O)NC(=O)[C@H](CC(C)C)NC(=O)[C@H](CCCCN)NC(=O)[C@H](CCCCN)NC(=O)[C@H](CCSC)NC(=O)[C@H](CCC(=O)O)NC(=O)[C@H](Cc1ccc(O)cc1)NC(=O)[C@H](CCC(=O)O)NC(=O)[C@H](CC(C)C)NC(=O)[C@H](CC(=O)O)NC(=O)[C@H](CC(C)C)NC(=O)[C@H](Cc1ccccc1)NC(=O)[C@H](Cc1ccccc1)NC(=O)[C@@H](NC(=O)[C@H](CC(N)=O)NC(=O)[C@@H](NC(=O)[C@H](CCC(N)=O)NC(=O)[C@H](CC(=O)O)NC(=O)[C@H](CC(C)C)NC(=O)[C@@H](N)CO)[C@@H](C)CC)C(C)C)C(=O)N[C@@H](CCCCN)C(=O)N[C@@H](CCCCN)C(=O)N[C@@H](CC(C)C)C(=O)N[C@@H](CCC(=O)O)C(=O)N[C@@H](CCC(=O)O)C(=O)N[C@H](C(=O)N[C@@H](Cc1ccc(O)cc1)C(=O)N[C@H](C(=O)N[C@@H](CC(=O)O)C(=O)N[C@@H](CC(C)C)C(=O)N[C@@H](CCCCN)C(=O)N[C@@H](CCC(=O)O)C(=O)N[C@@H](CC(C)C)C(=O)O)[C@@H](C)CC)[C@@H](C)O | SARS-CoV pseudovirus | pseudovirus infection, inhibitor, luciferase | Caco-2 | 24 h, dual mutations |  | IC50 | 289 nM |
| Nc1ccc([As]2SCC(C(=O)O)CS2)cc1 (stereo not shown) | HeLa Kyoto | Hoechst/PI staining |  | 1.5 h, co-incubation |  | CC50 | > 50000 nM |
| CC(C)[C@H]1CC[C@@H](N2CCC3(CC2)C(=O)NCN3c2ccccc2)CC1 | Nociceptin receptor (OPRL1, Homo sapiens, UniProt P41146) | G protein activation, GTPγS binding | CHO membranes |  | relative to: compound over N/OFQ EC50 | concentration ratio | 14 |
| COc1cccc(CNC(=O)N2CCCC3(C2)Nc2cccnc2N=C3NC2CCCC2)c1 (stereo not shown) | HEK293 | cell viability, CellTiter-Glo |  | 72 h |  | CC50 | > 70000 nM |
| O=C(O)C(O)=CC(=O)C1(Cc2ccc(Cl)cc2)CCN(C(=O)OCc2ccccc2)CC1 | SARS-CoV-2 | viral replication | VeroE6 | 50 µM |  | inhibition | 70% |
| CC[C@H](C)[C@H](NC(=O)[C@H](C)NC(=O)[C@H](CCC(=O)O)NC(=O)[C@H](CCC(=O)O)NC(=O)[C@H](CC(C)C)NC(=O)[C@H](CCCCN)NC(=O)[C@H](CCCCN)NC(=O)[C@H](CCSC)NC(=O)[C@H](CCC(=O)O)NC(=O)[C@H](Cc1ccc(O)cc1)NC(=O)[C@H](CCC(=O)O)NC(=O)[C@H](CC(C)C)NC(=O)[C@H](CC(=O)O)NC(=O)[C@H](CC(C)C)NC(=O)[C@H](Cc1ccccc1)NC(=O)[C@@H](NC(=O)[C@@H](NC(=O)[C@H](CC(N)=O)NC(=O)[C@@H](NC(=O)[C@H](CCC(N)=O)NC(=O)[C@H](CC(=O)O)NC(=O)[C@H](CC(C)C)NC(=O)[C@@H](N)CO)[C@@H](C)CC)C(C)C)[C@@H](C)O)C(=O)N[C@@H](CCCCN)C(=O)N[C@@H](CCCCN)C(=O)N[C@@H](CC(C)C)C(=O)N[C@@H](CCC(=O)O)C(=O)N[C@@H](CCC(=O)O)C(=O)N[C@H](C(=O)N[C@@H](Cc1ccc(O)cc1)C(=O)N[C@H](C(=O)N[C@@H](CC(=O)O)C(=O)N[C@@H](CC(C)C)C(=O)N[C@@H](CCCCN)C(=O)N[C@@H](CCC(=O)O)C(=O)N[C@@H](CC(C)C)C(=O)O)[C@@H](C)CC)[C@@H](C)O | SARS-CoV-2 JN.1 pseudovirus | pseudovirus infection, inhibitor, luciferase | Caco-2 | 24 h |  | IC50 | 247 nM |
| O=C(NC1CCN(c2ncnc3[nH]cnc23)CC1)c1cccc(NS(=O)(=O)c2ccc(Cl)cc2)c1 | SARS-CoV-2 |  | Wuhan-Hu-1 | 0.823 µM | relative to: untreated infected cells | relative infection | 55.5% |
| O=C(Nc1ccc(F)cc1)C1C(=O)N(O)C(=O)c2cc([N+](=O)[O-])ccc21 (stereo not shown) | Lymphocytic choriomeningitis mammarenavirus | minigenome reporter gene |  | 50 µM |  | inhibition | 30% |

Some of these lines once more:
| SMILES | target or system | test | test system | conditions | how to read | quantity | value |
| --- | --- | --- | --- | --- | --- | --- | --- |
| Nc1ccc([As]2SCC(C(=O)O)CS2)cc1 (stereo not shown) | HeLa Kyoto | Hoechst/PI staining |  | 1.5 h, co-incubation |  | CC50 | > 50000 nM |
| CC(C)[C@H]1CC[C@@H](N2CCC3(CC2)C(=O)NCN3c2ccccc2)CC1 | Nociceptin receptor (OPRL1, Homo sapiens, UniProt P41146) | G protein activation, GTPγS binding | CHO membranes |  | relative to: compound over N/OFQ EC50 | concentration ratio | 14 |
